{"data": "Measured values from different studies", "note": "Protocols differ between the studies behind these lines. ± gives the spread as reported."}
{"SMILES": "CC(C)[C@H](NC(=O)[C@@H](NC(=O)[C@H](CCCNC(=N)N)NC(=O)[C@H](CCCNC(=N)N)NC(=O)[C@H](CCCNC(=N)N)NC(=O)[C@H](CCC(N)=O)NC(=O)[C@H](CCCNC(=N)N)NC(=O)[C@H](CCCNC(=N)N)NC(=O)[C@H](CCCCN)NC(=O)[C@H](CCCCN)NC(=O)[C@H](CCCNC(=N)N)NC(=O)CN)[C@@H](C)O)C(=O)N[C@H](C(=O)N[C@@H](CO)C(=O)N1CCC[C@H]1C(=O)O)[C@@H](C)O", "system": "mouse ICR, female", "setting": "intranasal, 500 mg/kg single", "measurement": "day of death", "value": "5 days"}
{"SMILES": "CC[C@H](C)C(=O)N1CCC(NC(=O)Nc2ccc(OC(F)(F)F)c(F)c2)CC1", "system": "human, plasma", "setting": "oral, 24 mg, single dose, healthy volunteers", "measurement": "AUC(0-inf)", "value": "9310 ng·h/mL"}
{"SMILES": "CCCC[C@H](NC(=O)[C@H](Cc1c[nH]c2ccccc12)NC(=O)CNC(=O)[C@H](Cc1ccc(O)cc1)NC(=O)[C@H](C)NC(=O)[C@H](CCC(=O)O)NC(=O)[C@H](Cc1c[nH]cn1)NC(=O)[C@H](Cc1c[nH]cn1)NC(=O)[C@H](Cc1c[nH]cn1)NC(=O)[C@H](Cc1c[nH]cn1)NC(=O)[C@H](Cc1c[nH]cn1)NC(=O)[C@H](Cc1c[nH]cn1)NC(=O)CN1CCN(CC(=O)O)CCN(CC(=O)O)CCN(CC(=O)O)CC1)C(=O)N[C@@H](CC(=O)O)C(=O)N[C@@H](Cc1ccccc1)C(N)=O", "system": "MF1 nude mouse, male, CA20948 xenograft", "setting": "intravenous, 0.2 µg, 4 h, 111In-labelled", "scale": "baseline: tumour over kidney", "measurement": "tumour-to-kidney ratio", "value": 0.16}
{"SMILES": "CN[C@](C)(C[18F])C(=O)O", "tested on": "DU-145 tumour model", "system": "host not given, muscle", "setting": "30 min, tumour-bearing", "measurement": "tracer uptake", "value": "1.7 %ID/g"}
{"SMILES": "O=c1cc(-c2ccccc2)oc2c(Br)c(O)c(O)c(O)c12", "system": "C57BL/6 mouse, plasma", "setting": "oral, 50 mg/kg, single dose", "measurement": "AUC(0-t)", "value": "1060 ng·h/mL"}
{"SMILES": "C/C=C/C=C/C/C=C/CCCCCCCc1cccc(O)c1O", "system": "female Kunming mice, tumour-bearing, liver", "setting": "intravenous, 10 mg/kg, 12 h", "measurement": "tissue concentration", "value": "2870 ± 680 ng/g"}
{"SMILES": "[11CH3]n1c(=O)n(CCCO)c(=O)c2c1nc(Oc1cccc(OC(F)(F)F)c1)n2Cc1ccc(Cl)cc1", "assay": "ex vivo biodistribution", "system": "Sprague Dawley rat, muscle", "setting": "60 min post injection", "measurement": "tracer uptake", "value": "0.36 ± 0.05 %ID/g"}
{"SMILES": "N=C(N)NCCC[C@@H]1NC(=O)[C@H](CCCCNC(=O)CNC(=O)CNC(=O)CNC(=O)CC[C@H](NC(=O)CCOCCOCCOCCOCCNC(=O)CC[C@H](NC(=O)CN2CCN(CC(=O)O)CCN(CC(=O)O)CCN(CC(=O)O)CC2)C(=O)NCCOCCOCCOCCOCCC(=O)N[C@@H](CCC(=O)NCC(=O)NCC(=O)NCC(=O)NCCCC[C@@H]2NC(=O)[C@@H](Cc3ccccc3)NC(=O)[C@H](CC(=O)O)NC(=O)CNC(=O)[C@H](CCCNC(=N)N)NC2=O)C(=O)NCC(=O)NCC(=O)NCC(=O)NCCCC[C@@H]2NC(=O)[C@@H](Cc3ccccc3)NC(=O)[C@H](CC(=O)O)NC(=O)CNC(=O)[C@H](CCCNC(=N)N)NC2=O)C(=O)NCC(=O)NCC(=O)NCC(=O)NCCCC[C@@H]2NC(=O)[C@@H](Cc3ccccc3)NC(=O)[C@H](CC(=O)O)NC(=O)CNC(=O)[C@H](CCCNC(=N)N)NC2=O)NC(=O)[C@@H](Cc2ccccc2)NC(=O)[C@H](CC(=O)O)NC(=O)CNC1=O [indium-111 labelled]", "system": "female athymic nude mouse", "setting": "intravenous, 0.5 h, U-87 MG glioma xenograft", "scale": "baseline: tumour over bone", "measurement": "tumour to bone ratio", "value": "5.27 ± 1.35"}
{"SMILES": "CCCC[C@H](NC(=O)CNC(=O)CNC(=O)c1ccc(NN)nc1)C(=O)N[C@H]1CC(=O)NCCCC[C@@H](C(N)=O)NC(=O)[C@H](Cc2c[nH]c3ccccc23)NC(=O)[C@H](CCCNC(=N)N)NC(=O)[C@@H](Cc2ccccc2)NC(=O)[C@H](Cc2c[nH]cn2)NC1=O [technetium-99m labelled]", "system": "C57 mouse, B16/F1 melanoma-bearing", "setting": "intravenous, 0.5 h", "scale": "baseline: tumour over skin", "measurement": "tissue uptake ratio", "value": 4.67}
{"SMILES": "N=C(N)NCCC[C@@H]1NC(=O)[C@H](CCCCNC(=O)CC[C@H](NC(=O)CCOCCOCCOCCOCCNC(=O)CN2CCN(CC(=O)O)CCN(CC(=O)O)CCN(CC(=O)O)CC2)C(=O)NCCCC[C@@H]2NC(=O)[C@@H](Cc3ccccc3)NC(=O)[C@H](CC(=O)O)NC(=O)CNC(=O)[C@H](CCCNC(=N)N)NC2=O)NC(=O)[C@@H](Cc2ccccc2)NC(=O)[C@H](CC(=O)O)NC(=O)CNC1=O [indium-111 labelled]", "system": "female athymic nude mouse, U-87 MG tumour", "setting": "intravenous, 3 µCi, 1 h, U-87 MG glioma xenograft", "measurement": "tumour uptake", "value": "4.9 %ID/g"}
{"SMILES": "CC(C)C[C@@H](N)C(=O)NCC(=O)N[C@H](C)C(=O)N[C@H](CO)C(=O)N[C@H](Cc1c[nH]c2ccccc12)C(=O)N[C@H](Cc1c[nH]cn1)C(=O)N[C@H](CCCNC(=N)N)C(=O)N1CCC[C@@H]1C(=O)N[C@H](CC(=O)O)C(=O)N[C@H](CCCCN)C(=O)N[C@H](CS)C(=O)N[C@H](CS)C(=O)N[C@H](CC(C)C)C(=O)NCC(=O)N[C@H](Cc1ccc(O)cc1)C(=O)N[C@H](CCC(N)=O)C(=O)N[C@H](CCCCN)C(=O)N[C@H](CCCNC(=N)N)C(=O)N1CCC[C@@H]1C(=O)N[C@H](CC(C)C)C(=O)N1CCC[C@@H]1C(N)=O", "system": "male Sprague-Dawley rat, plasma", "setting": "subcutaneous, 10 mg/kg, single dose", "measurement": "AUC(0-inf)", "value": "35600 ng·h/mL"}
{"SMILES": "CC(C)[C@H](NC(=O)CNC(=O)[C@H](CCC(N)=O)NC(=O)[C@H](C)N)C(=O)O", "assay": "mild intensity", "system": "human", "setting": "20 mg/kg, 3 days, thrice daily dosing", "measurement": "subjects with adverse events", "value": "50%"}
{"SMILES": "COCCOCCOCCOc1ccc(/C=C/c2c(I)c(C)c3n2[B-](F)(F)[N+]2=C(C)C(I)=C(C)C2=C3c2cc(OC)cc(OC)c2)cc1", "system": "THF", "scale": "baseline: methylene blue", "measurement": "fluorescence quantum yield", "value": 0.32}
{"SMILES": "COC(=O)C[C@](O)(CCCC(C)(C)OC(C)=O)C(=O)O[C@@H]1C(OC)=C[C@]23CCCN2CCc2cc4c(cc2[C@H]13)OCO4", "system": "CD1 mouse, heart", "setting": "subcutaneous, 1 mg/kg, 2 h", "measurement": "tissue concentration", "value": "98.6 ng/mL"}
{"SMILES": "CC(C)C[C@H](NC(=O)[C@H](CCCCN)NC(=O)[C@H](CCC(=O)O)NC(=O)[C@H](C)NC(=O)[C@@H](NC(=O)[C@H](CCCCN)NC(=O)[C@H](CC(=O)O)NC(=O)[C@H](Cc1ccc(O)cc1)NC(=O)[C@H](Cc1ccccc1)NC(=O)[C@H](C)NC(=O)[C@H](CCCCN)NC(=O)[C@H](CC(C)C)NC(=O)[C@H](Cc1c[nH]c2ccccc12)NC(=O)[C@@H](N)CC(=O)O)C(C)C)C(=O)N[C@@H](CCCCN)C(=O)N[C@@H](CCC(=O)O)C(=O)N[C@@H](C)C(=O)N[C@@H](Cc1ccccc1)C(=O)N1CCC[C@H]1C(=O)N[C@@H](CC(=O)O)C(=O)N[C@@H](Cc1c[nH]c2ccccc12)C(=O)N[C@@H](C)C(=O)N[C@@H](CCCCN)C(=O)N[C@@H](C)C(=O)N[C@@H](C)C(=O)N[C@@H](Cc1ccc(O)cc1)C(=O)N[C@@H](CC(=O)O)C(=O)N[C@@H](CCCCN)C(=O)N[C@@H](C)C(=O)N[C@@H](C)C(=O)N[C@@H](CCC(=O)O)C(=O)N[C@@H](CCCCN)C(=O)N[C@@H](C)C(=O)N[C@@H](CCCCN)C(=O)N[C@@H](CCC(=O)O)C(=O)N[C@@H](C)C(=O)N[C@@H](C)C(=O)O", "system": "cynomolgus monkey male, plasma", "setting": "intravenous infusion, 25 mg/kg, day 1, 30 min infusion", "measurement": "AUC(0-last)", "value": "1500 µg·h/mL"}
{"SMILES": "N=C(N)NCc1ccc(C(=O)NCCCC[C@H](NC(=O)N[C@@H](CCC(=O)O)C(=O)O)C(=O)O)cc1[211At]", "system": "SCID mouse, PC-3 xenografts, kidneys", "setting": "4 h", "measurement": "tissue uptake", "value": "77.7 ± 38.8 %ID/g"}
{"SMILES": "CC[C@H](C)[C@H](NC(=O)CNC(=O)[C@@H](NC(=O)[C@H](Cc1ccc(O)cc1)NC(=O)[C@@H](NC(=O)[C@H](CO)NC(=O)[C@@H](NC(=O)[C@H](C)NC(=O)[C@@H]1CCCN1C(=O)[C@@H](NC(=O)[C@H](Cc1ccccc1)NC(=O)[C@H](CCCCN)NC(=O)[C@H](CCC(=O)O)NC(=O)[C@H](Cc1ccc(O)cc1)NC(=O)[C@H](CC(C)C)NC(=O)[C@H](CC(=O)O)NC(=O)[C@H](CCCNC(=N)N)NC(=O)[C@H](CC(C)C)NC(=O)[C@H](CCCCN)NC(=O)[C@H](CCC(=O)O)NC(=O)[C@H](Cc1ccccc1)NC(=O)[C@@H](NC(=O)[C@H](CCC(=O)O)NC(=O)[C@H](CCCCN)NC(=O)[C@H](CC(C)C)NC(=O)[C@H](Cc1ccc(O)cc1)NC(=O)[C@@H](N)CC(=O)O)C(C)C)[C@@H](C)O)C(C)C)[C@@H](C)O)[C@@H](C)O)C(=O)N[C@@H](Cc1ccccc1)C(=O)N[C@H](C(=O)N[C@@H](CC(=O)O)C(=O)N[C@@H](CCC(N)=O)C(=O)N[C@H](C(=O)N[C@@H](CC(C)C)C(=O)N[C@@H](CO)C(=O)N[C@H](C(=O)N[C@@H](CC(C)C)C(=O)N[C@@H](CCCCN)C(=O)NCC(=O)N[C@@H](CCC(=O)O)C(=O)N[C@@H](CCC(=O)O)C(=O)O)C(C)C)C(C)C)[C@@H](C)O", "system": "C57BL/6 mouse", "setting": "intravenous, dose not given", "measurement": "distribution half-life", "value": "3 h"}
{"SMILES": "[2H]C([2H])([2H])C([2H])([2H])C([2H])([2H])OC(C(=O)OC1CCNCC1)(c1ccccc1)c1ccccc1", "system": "male human, plasma", "setting": "oral, 8 mg, multiple doses", "measurement": "half-life", "value": "3.09 days"}
{"SMILES": "CCCCCCCCC(=O)NCc1ccc(O)c(OC)c1", "tested on": "mAb 5-D8", "assay": "antibody binding, indirect competitive ELISA", "setting": "together with: coating antigen hapten 4-OVA", "measurement": "IC50", "value": "2.74 ng/mL"}
{"note": "For quick reference, copied from above:"}
{"SMILES": "CN[C@](C)(C[18F])C(=O)O", "tested on": "DU-145 tumour model", "system": "host not given, muscle", "setting": "30 min, tumour-bearing", "measurement": "tracer uptake", "value": "1.7 %ID/g"}
{"SMILES": "O=c1cc(-c2ccccc2)oc2c(Br)c(O)c(O)c(O)c12", "system": "C57BL/6 mouse, plasma", "setting": "oral, 50 mg/kg, single dose", "measurement": "AUC(0-t)", "value": "1060 ng·h/mL"}
{"SMILES": "C/C=C/C=C/C/C=C/CCCCCCCc1cccc(O)c1O", "system": "female Kunming mice, tumour-bearing, liver", "setting": "intravenous, 10 mg/kg, 12 h", "measurement": "tissue concentration", "value": "2870 ± 680 ng/g"}
